Results gathered from unrelated publications.
Compare with care: the assays were run in different laboratories. ± marks the error that the study gave.
Sequence of UniProt P02769 (whole entry, looked up): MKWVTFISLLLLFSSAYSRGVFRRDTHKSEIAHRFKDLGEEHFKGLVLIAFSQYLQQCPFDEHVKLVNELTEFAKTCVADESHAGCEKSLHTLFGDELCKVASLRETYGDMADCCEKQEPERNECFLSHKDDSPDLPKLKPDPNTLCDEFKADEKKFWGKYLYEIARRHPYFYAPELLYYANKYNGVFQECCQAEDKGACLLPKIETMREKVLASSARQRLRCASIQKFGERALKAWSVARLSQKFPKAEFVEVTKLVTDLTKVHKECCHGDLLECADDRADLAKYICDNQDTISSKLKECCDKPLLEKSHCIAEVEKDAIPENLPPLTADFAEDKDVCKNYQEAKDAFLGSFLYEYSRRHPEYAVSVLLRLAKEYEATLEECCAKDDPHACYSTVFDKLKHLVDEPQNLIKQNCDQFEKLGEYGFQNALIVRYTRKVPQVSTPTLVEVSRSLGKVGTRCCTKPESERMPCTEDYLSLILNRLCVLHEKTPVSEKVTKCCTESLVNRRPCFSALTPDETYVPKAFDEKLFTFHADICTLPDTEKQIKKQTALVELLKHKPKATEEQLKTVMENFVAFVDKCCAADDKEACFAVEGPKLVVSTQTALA

`[64Cu+2].c1ccc(CNCc2ccc(CN3CCCN4CCNCCCN(CC4)CC3)cc2)nc1` has a tissue uptake of 6.92 ± 2.62 %ID/g (CXCR4; NOD/SCID mouse, U87 and U87-stb-CXCR4 xenografts, bladder; iv, 90 min, ex vivo, added: AMD3465 25 mg/kg sc before tracer).
`N#Cc1ccc(-c2ccc(-c3ccco3)o2)cc1` gave a viability of 106 ± 6.6% (Salmonella typhimurium; liquid broth OD; TA1535; 25 µM, 15 h; relative to: growth).
`N#C[C@@H]1CCCN1C(=O)CNC(=O)c1ccnc2ccc(OCCCN3CCN(C(=O)CCc4ccc(O)c(CN5CCN6CC(=O)[O][Al-]([18F])([O]C(=O)C5)[O]c5ccc(CCC(=O)N7CCN(CCCOc8ccc9nccc(C(=O)NCC(=O)N%10CCC[C@H]%10C#N)c9c8)CC7)cc5C6)c4)CC3)cc12` (stereo partly shown) has a tracer uptake of 40.3 %ID/g (U-87 MG tumour model; host not given, tumour; 2 h, tumour-bearing).
For `N=C(N)c1ccc(-c2ccc(-c3ccco3)o2)cc1`, the viability was 40.8 ± 2.5% (Salmonella typhimurium; liquid broth OD; TA1535; 100 µM, 15 h; relative to: growth).
For `CC(C)CCC[C@@H](C)[C@H]1CCC([C@@H]2CC[C@H]3C[C@H](O)CC[C@]3(C)[C@H]2O)[C@]1(C)CC(=O)O` (stereo partly shown), the viability was over 100% (HEK293T; CellTiter-Blue; 10 µM).
For `N#Cc1ccc(-c2ccc(-c3cccs3)o2)nc1`, the viability was 130 ± 9.3% (Salmonella typhimurium; liquid broth OD; TA1535; 25 µM, 15 h; relative to: growth).
With `Cc1cc(C#N)cc(C)c1Oc1nc(NC2CCN(Cc3cccc(C(N)=O)c3)CC2)nc2ccccc12` the selectivity index was over 28.9 (HIV-1; TZM-bl, NL4-3 wild type; relative to: CC50 over EC50).
`O=C(O[C@@H]1Cc2c(O)cc(O)cc2O[C@@H]1c1cc(O)c(O)c(O)c1)c1cc(O)c(O)c(O)c1` has a remaining fluorescence of 20.7% (Albumin (ALB, Bos taurus, UniProt P02769); binding, fluorescence quenching; 25 µM, 1 h, pH 7.4, added: BSA 3 µM; relative to: untreated).
`C[C@H](NP(=O)(O)OC[C@H]1O[C@@](C#N)(c2ccc3c(N)ncnn23)[C@H](O)[C@@H]1O)C(=O)O` gave a CC50 of over 100 µM (primary human hepatocytes; item: total DNA content; 3 days).
The viability of `N#Cc1ccc(-c2ccc(-c3cccs3)s2)cc1` is reported as 119 ± 6.7% (Salmonella typhimurium; liquid broth OD; TA1535; 50 µM, 15 h; relative to: growth).
`O=C(O)CCC(NP(=O)(O)OCCC[C@@H](NC(=O)CC[C@H](NC(=O)CCCCCNC(=O)c1ccc([18F])cc1)C(=O)O)C(=O)O)C(=O)O` (stereo partly shown) gave a tracer uptake of 0.451 %ID/g (CWR22Rv1 tumour model; host not given, liver; 1 h, tumour-bearing).
For `C=CCC1=C[C@]2(C[C@@H](O)C(C)(C)O2)C2=C(C[C@H]3C[C@H]4[C@H](C[C@@]3(C)O2)C(=C)CCCC4(C)C)C1=O`, the selectivity index was 2.1 (coxsackievirus B3; cytopathic effect; Vero, Nancy; relative to: CC50 over IC50).
For `CC(=O)N[C@H](C(=O)N[C@H](C(=O)N[C@@H](CCCNC(=N)N)C(=O)N1Cc2ccccc2C[C@H]1C(=O)N[C@@H](Cc1ccccc1)C(N)=O)C1CCCCC1)C(C)C`, the cytokine level was 201 ± 110 pg/mL (human PBMC; Bio-Plex multiplex, item: IL-1ra; 250 µg/mL, 24 h).
The selectivity index of `Cc1cc(/C=C/C#N)cc(C)c1Oc1nc(NC2CCN(Cc3ccc(S(N)(=O)=O)cc3)CC2)nc2ccccc12` is reported as 2560 (HIV-1; TZM-bl, NL4-3 wild type; relative to: CC50 over EC50).
The viability of `N#Cc1ccc(-c2ccc(-c3cccs3)o2)cc1` is reported as 101 ± 6.3% (Salmonella typhimurium; liquid broth OD; TA1535; 12.5 µM, 15 h; relative to: growth).
For `C=CCC1=C[C@@]2(C[C@H](O)C(C)(C)O2)C2=C(C[C@H]3C[C@H]4C(=C)CCCC(C)(C)[C@@H]4C[C@@]3(C)O2)C1=O`, the selectivity index was 4.3 (coxsackievirus B3; cytopathic effect; Vero, Nancy; relative to: CC50 over IC50).
`Cc1cc(C#N)cc(C)c1Oc1nc(NC2CCN(Cc3ccc(S(=O)(=O)NC4CC4)cc3)CC2)nc2ccccc12` gave a selectivity index of over 16.2 (HIV-1; TZM-bl, NL4-3 wild type; relative to: CC50 over EC50).
With `N=C(N)c1ccc(-c2ccc(-c3cccs3)o2)cc1` the viability was 108 ± 7.4% (Salmonella typhimurium; liquid broth OD; TA1535; 25 µM, 15 h; relative to: growth).
The selectivity index of `Cc1cc(C#N)cc(C)c1Oc1nc(NC2CCN(Cc3ccc(C#N)cc3)CC2)nc2ccccc12` is reported as over 22.5 (HIV-1; TZM-bl, NL4-3 wild type; relative to: CC50 over EC50).
`Cn1c(=O)oc2ccc(-c3ccc(CC(C#N)NC(=O)C4CNCCCO4)c(F)c3)cc21` (stereo not shown) has an AUC(0-inf) of 8810 ng·h/mL (human, plasma; 40 mg once daily, day 28, geometric mean).
`N#Cc1ccc(-c2ccc(-c3ccco3)o2)nc1` gave a viability of 125 ± 10.1% (Salmonella typhimurium; liquid broth OD; TA1535; 25 µM, 15 h; relative to: growth).
The tissue uptake of `[64Cu+2].c1cnc(CNCc2ccc(CN3CCCN4CCNCCCN(CC4)CC3)cc2)nc1` is reported as 4.78 ± 0.21 %ID/g (CXCR4 (human); NOD/SCID mice, U87 xenografts, U87 control tumour; 30 min post-injection).
`[99Tc+].[C-]#[N+]CC(C)(C)OC.[C-]#[N+]CC(C)(C)OC.[C-]#[N+]CC(C)(C)OC.[C-]#[N+]CC(C)(C)OC.[C-]#[N+]CC(C)(C)OC.[C-]#[N+]CC(C)(C)OC` — result for “basolateral efflux fraction”: 71.7% (human sandwich-cultured hepatocytes; relative to: total efflux).
`Cc1cc(C#N)cc(C)c1Oc1nc(NC2CCN(Cc3ccc(C(N)=O)cc3)CC2)nc2ncccc12` has a selectivity index of 40800 (HIV-1; TZM-bl, NL4-3 wild type; relative to: CC50 over EC50).
`N=C(N)c1ccc(-c2ccc(-c3cccs3)o2)nc1` has a viability of 87.6 ± 8.7% (Salmonella typhimurium; liquid broth OD; TA1535; 100 µM, 15 h; relative to: growth).

Some of these lines once more:
`Cc1cc(C#N)cc(C)c1Oc1nc(NC2CCN(Cc3ccc(S(=O)(=O)NC4CC4)cc3)CC2)nc2ccccc12` gave a selectivity index of over 16.2 (HIV-1; TZM-bl, NL4-3 wild type; relative to: CC50 over EC50).
With `N=C(N)c1ccc(-c2ccc(-c3cccs3)o2)cc1` the viability was 108 ± 7.4% (Salmonella typhimurium; liquid broth OD; TA1535; 25 µM, 15 h; relative to: growth).
The selectivity index of `Cc1cc(C#N)cc(C)c1Oc1nc(NC2CCN(Cc3ccc(C#N)cc3)CC2)nc2ccccc12` is reported as over 22.5 (HIV-1; TZM-bl, NL4-3 wild type; relative to: CC50 over EC50).
